# Experimental data gathered from unrelated publications.
# Each line is one published result; not all experiments were run side by side.
Substance,tested on,assay,system,setting,measurement,value
LPFFSNVTWFHAIHV,human CD4 T cells,AIM,peptide,,responding donors,9%
CC[C@H](C)[C@H](NC(=O)[C@H](CC(C)C)NC(=O)[C@H](Cc1c[nH]c2ccccc12)NC(=O)[C@H](CCC(N)=O)NC(=O)[C@@H](NC(=O)[C@H](Cc1ccccc1)NC(=O)[C@H](C)NC(=O)[C@H](CCCCNC(=O)COCCOCCNC(=O)COCCOCCNC(=O)CC[C@H](NC(=O)CCCCCCCCCCCCCCCCCCC(=O)O)C(=O)O)NC(=O)[C@H](CCC(N)=O)NC(=O)[C@H](C)NC(=O)[C@@H](NC(=O)[C@H](CCCCN)NC(=O)[C@H](CC(=O)O)NC(=O)[C@H](CC(C)C)NC(=O)C(C)(C)NC(=O)[C@@H](NC(=O)[C@H](CO)NC(=O)[C@H](Cc1ccc(O)cc1)NC(=O)[C@H](CC(=O)O)NC(=O)[C@H](CO)NC(=O)[C@@H](NC(=O)[C@H](Cc1ccccc1)NC(=O)[C@@H](NC(=O)CNC(=O)[C@H](CCC(=O)O)NC(=O)C(C)(C)NC(=O)[C@@H](N)Cc1ccc(O)cc1)[C@@H](C)O)[C@@H](C)O)[C@@H](C)CC)[C@@H](C)CC)C(C)C)C(=O)N[C@@H](C)C(=O)NCC(=O)NCC(=O)N1CCC[C@H]1C(=O)N[C@@H](CO)C(=O)N[C@@H](CO)C(=O)NCC(=O)N[C@@H](C)C(=O)N1CCC[C@H]1C(=O)N1CCC[C@H]1C(=O)N1CCC[C@H]1C(=O)N[C@@H](CO)C(N)=O,,,"human, plasma","subcutaneous, 0.5 mg, day 1, tau 168 h, multiple ascending dose, geometric mean",AUC(0-tau),6000 ng·h/mL
C[C@H](NC(=O)Cc1cc(F)cc(F)c1)C(=O)N[C@H](C(=O)OC(C)(C)C)c1ccccc1,"Replicase polyprotein 1ab, main protease (rep, Severe acute respiratory syndrome coronavirus 2, UniProt P0DTD1)","reporter gene (Gaussia luciferase), inhibitor",,20 µM,inhibition,1.84%
Cn1cnc(Cn2c(=O)[nH]/c(=N\c3cc4cn(C)nc4cc3Cl)n(Cc3cc(F)c(F)cc3F)c2=O)n1,,,"human, mild renal impairment","oral, 375 mg","any TEAE, severe severity",0%
AAISDYDYYR,human PBMC CD8+ T cells,T cell response,peptide,,positive donors,1 donors
Nc1ncnc2c([C@@H]3N[C@H](CO)[C@@H](O)[C@H]3O)c[nH]c12,Zaire ebolavirus,antibody staining,"HeLa, Kikwit",50 µM,antigen-positive cells,0.06%

# For quick reference, copied from above:
Substance,tested on,assay,system,setting,measurement,value
Nc1ncnc2c([C@@H]3N[C@H](CO)[C@@H](O)[C@H]3O)c[nH]c12,Zaire ebolavirus,antibody staining,"HeLa, Kikwit",50 µM,antigen-positive cells,0.06%
